# Results from different studies.
# Compare with care: the assays were run in different laboratories.
# EGFR: Epidermal growth factor receptor (EGFR, Homo sapiens, UniProt P00533)
# EGFR L858R: Epidermal growth factor receptor (EGFR, Homo sapiens, UniProt P00533, L858R)
# EGFR L858R/T790M: Epidermal growth factor receptor (EGFR, Homo sapiens, UniProt P00533, L858R/T790M)
SMILES,target,assay,conditions,how to read,endpoint,value
CC(C)[C@H]1NC(=O)C[C@H]2/C=C/CCSSC[C@@H](NC1=O)C(=O)N[C@H](Cc1cccc3ccccc13)C(=O)NCC(=O)O2,"EGFR (Homo sapiens, UniProt P00533, del746-750/T790M)","enzyme activity, inhibitor",10 µM,,inhibition,-0.9%
N[C@H](C(=O)N1CCCC1)C1CCN(c2nccc3c(-c4ncc(Cl)cc4Cl)cccc23)CC1,EGFR,"kinase activity, inhibitor","10 µM, added: ATP 1 mM",,inhibition,2.9%
O=C1NC(=O)c2c1c1cc(F)c[n+]3c1c1c2c2cc(O)ccc2[n]1[Ru-4]312([N]=C=S)[S+]3CC[S+]1CC[S+]2CC3 (centres unmarked),EGFR L858R,enzyme activity,"100 nM, human enzyme, added: 10 µM ATP",relative to: untreated,remaining activity,61%
CCOC(=O)[C@@H]1Cc2c(cc([N+](=O)[O-])cc2[N+](=O)[O-])[C@H](O)[C@]12C(=O)Nc1ccc(Br)cc12,EGFR L858R,KINOMEscan,100 nM,relative to: DMSO control,remaining binding,98%
O=C(CN1CN(c2ccccc2)C2(CCN(C(=O)c3cnc4[nH]ncc4c3)CC2)C1=O)NCC(F)(F)F,EGFR L858R/T790M,inhibitor,concentration not given,,inhibition,< 50%
CN(/N=C/c1ccccc1C(=O)O)c1nc(-c2ccccc2Cl)cs1,EGFR,"enzyme activity, inhibitor",1 µM,,inhibition,-22.3%
CS(C)(=O)=Nc1ccc(-c2ccc(-c3nc4cc(O[C@@H]5CO[C@H]6[C@@H]5OC[C@H]6O)[nH]c4cc3F)cc2)cc1,EGFR L858R/T790M,"enzyme activity, inhibitor",10 µM,,inhibition,-36%
Nc1ccc(/C=C/C(=O)N2CCc3c(oc4c(-c5ccc(F)cc5)cc(-c5ccc(C(=O)N6CCC(F)(F)CC6)cn5)cc34)C2)cn1,EGFR L858R,"binding, competition with immobilised ligand",1 µM,,remaining binding,77%
